Published values pooled from the literature.
Parts stem from different laboratories: compare values within a part only. Substitutions count along the parent as printed.

Series 1 — target: CRIPT, C-terminal peptide; method: DHFR complementation, deep sequencing; matrix: yeast; baseline: wild type; reading: higher = weaker binding
Notes: single substitutions, model-inferred values
Starting sequence: ERBIN, PDZ domain 1 (human); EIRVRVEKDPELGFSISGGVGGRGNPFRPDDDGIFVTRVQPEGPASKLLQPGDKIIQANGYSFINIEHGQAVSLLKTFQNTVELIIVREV; partner TKNYKQTSV
Substitution	binding free energy change
G22C	0.0203 kcal/mol
I66V	-0.0392 kcal/mol
D30Y	0.363 kcal/mol
I85C	-0.105 kcal/mol
S17V	0.109 kcal/mol
R88D	0.295 kcal/mol
R5K	0.0971 kcal/mol
I34Y	1.41 kcal/mol

Series 2 — method: RNA Bind-n-Seq; form: RNA; matrix: in vitro; concentration: 1 µM; notes: whole 134-nt RNA, ends assumed; added: 150 mM KCl; baseline: input library; reading: higher = stronger binding
Target: Ras GTPase-activating protein-binding protein 1, C-terminal RGG region (G3BP1, Homo sapiens, UniProt Q13283)
Chain of UniProt Q13283 (whole entry, looked up): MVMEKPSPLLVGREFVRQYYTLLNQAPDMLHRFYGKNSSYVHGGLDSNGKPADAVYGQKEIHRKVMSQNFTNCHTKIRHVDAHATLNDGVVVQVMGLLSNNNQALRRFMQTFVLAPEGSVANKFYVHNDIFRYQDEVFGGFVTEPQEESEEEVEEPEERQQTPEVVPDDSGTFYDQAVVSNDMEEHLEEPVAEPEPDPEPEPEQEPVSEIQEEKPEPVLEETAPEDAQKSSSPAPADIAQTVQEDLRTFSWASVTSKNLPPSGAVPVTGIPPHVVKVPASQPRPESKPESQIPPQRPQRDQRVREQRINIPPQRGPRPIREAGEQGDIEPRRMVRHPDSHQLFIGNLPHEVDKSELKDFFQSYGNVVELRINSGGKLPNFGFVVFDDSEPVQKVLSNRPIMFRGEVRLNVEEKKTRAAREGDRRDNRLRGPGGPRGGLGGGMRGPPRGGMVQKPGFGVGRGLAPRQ
Oligonucleotide	log2 enrichment
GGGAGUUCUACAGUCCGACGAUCUCUCCCCAGGAGCACAGAAAAUGGUUCUGCCCCCUCCACAGCUCCCACAGACCAGAGCCGGCCACCGUUGGAGGUGAGUCGCCCGCCCCUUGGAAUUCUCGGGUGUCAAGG	0.326
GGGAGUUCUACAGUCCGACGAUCUCAAGUCCUGUGCUACACAUCGUAUGUACCGAAUCGGUUGGGGUUGGGUUGGGGAAAGUAUUAUGUUACGCCGUUCGGAUCUGCACUUCCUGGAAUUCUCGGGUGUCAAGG	1.57
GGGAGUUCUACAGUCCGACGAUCAGUCCUGUGCUACACAUCGUAUGUACCGAAUCGGGGUUUUUGGGGAGGGGUUUGGGGAAAGUAUUAUGUUACGCCGUUCGGAUCUGCACUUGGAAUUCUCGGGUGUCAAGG	1.81
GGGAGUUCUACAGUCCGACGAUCGCAGGAAGUAAAAACAAAUGGAAAUGCUUCGGAUAGUGGCAGGGGUGUGGGUUGCUAAGGAAAGGGUGGGAUGGGAGUGGGUAAAGAGUUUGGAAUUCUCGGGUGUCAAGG	1.01
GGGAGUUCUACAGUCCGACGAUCGCCACUGUUCACCAGUCCUACCCACACCAUGCCACACAGCUCCAUGCCCACCAGCCGCAGCCGGCUACCACGCCUACUGGAAGCCAGCCGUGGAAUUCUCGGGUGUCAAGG	-0.409
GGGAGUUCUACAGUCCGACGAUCUUCUGACUCAGAAUGUGCCAAAAAGGCUUUGGAACAACUUAAUGGAUUUGAACUAGCAGGAAGACCAAUGAAAGUUGGUCAUGUUACUGAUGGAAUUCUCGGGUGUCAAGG	-1.64
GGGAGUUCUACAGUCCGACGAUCUAACUUUAGAGGAGGAUCUGAUGGAUAUGGCAGUGGACGUGGAUUUGGGGAUGGCUAUACUGGGUAUGGAGGAGGACCUGGAGGUGGCAAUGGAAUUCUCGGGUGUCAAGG	-0.857
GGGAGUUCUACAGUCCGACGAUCUCCUGUGCUACACAUCGUAUGUACCGAAUCGGGGAAAAAGGGGUGGGGUUUUUUUGGGGAAAGUAUUAUGUUACGCCGUUCGGAUCUGCAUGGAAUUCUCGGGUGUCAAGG	1.43

Series 3 — method: RNA Bind-n-Seq; form: RNA; matrix: in vitro; concentration: 100 nM; baseline: input RNA pool; reading: higher = stronger binding
Target: RING finger protein unkempt homolog, zinc fingers 1-6, SBP tag (UNK, Homo sapiens, UniProt Q9C0B0, residues 30-357)
Chain of UniProt Q9C0B0 (30-357, looked up): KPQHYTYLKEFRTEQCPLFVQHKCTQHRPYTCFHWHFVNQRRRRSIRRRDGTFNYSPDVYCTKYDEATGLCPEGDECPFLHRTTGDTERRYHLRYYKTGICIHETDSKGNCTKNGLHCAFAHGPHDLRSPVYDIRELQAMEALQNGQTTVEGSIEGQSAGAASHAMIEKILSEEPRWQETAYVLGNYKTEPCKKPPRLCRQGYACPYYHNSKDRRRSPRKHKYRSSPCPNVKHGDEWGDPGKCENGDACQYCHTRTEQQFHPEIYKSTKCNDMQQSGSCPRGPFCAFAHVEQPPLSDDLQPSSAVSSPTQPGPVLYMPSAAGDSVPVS
Notes: RNA with constant flanks, vertebrate orthologous sites, ends assumed
Oligonucleotide	bound/input enrichment [ratio]
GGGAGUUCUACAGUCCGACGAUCAACAAAAAAACGUUUCCACUGGGUUUUGCCUGUAAGAAAAUAAAAAUGUACCCGAGCACAUAGAGCUUUUUAACAGCACUAACCAAUGCCUUUUUAGAUGUAUUUUUGAUGUAUAUAUCUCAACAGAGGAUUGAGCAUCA	0.554
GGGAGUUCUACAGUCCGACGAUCCUCUUUUCCAGGUUGGAUGUACUGGAAAAGUCAUAGGAAUUGAUCACAUUAAAGAGCUAGUGGAUGACUCAAUAAAUAAUGUCAGGAAGGACGAUCCAACACUUCUGUCUUCAGGGAGAGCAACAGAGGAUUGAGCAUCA	0.645
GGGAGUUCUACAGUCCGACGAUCGUUGUGACCCAUUUAACAUACACAAGAAACUAGCCAAGAAAAAUUUGCAUGUAAUUGACUUAGAUGAUGCUACUUUUCUGAGUGCAAAAUUUGGGAGACAGCUUGUACCUGGCUGGAAACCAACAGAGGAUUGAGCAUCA	0.836
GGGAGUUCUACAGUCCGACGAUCCAAUUCAAUGGUUGAAGGUUCAGAACUCAAAAAGGUUCGAUCCAACUCUAGGAUUUACCAUAGAUAUUUUUUACUGGAUGCCGACAUGCAGAGCCUGAGGUGGGAGCCGUCCAAGAAGGACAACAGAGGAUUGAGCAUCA	0.696
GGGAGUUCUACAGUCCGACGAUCUCCUCUGAACCCCAUUUCUUCUGUUUCAUAGUGCAGAAAUAUUCUUUUCAACUAUAUUUUUACUGGACUUGUUUUGAUUUUAAUAGAAUUUCCAGUACAGAUGCUGUGAGCUGACAUGGACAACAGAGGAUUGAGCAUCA	0.618
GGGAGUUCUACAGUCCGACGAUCUCCUUAACUUGUUCUAGCUUGUGAUCCUUUAAAGUUGGAUCAUACAUUAGUGCUAGAUACUAGAAAUUUCACUUCUCUGUUUCCAGUGAUCAGAGAAACAGACAUUAAAAACAGGAAUAUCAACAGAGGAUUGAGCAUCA	0.615
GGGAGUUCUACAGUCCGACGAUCCAUGUCCUUGUUACUGUGAUAUUUAAAAUAUCCACAGUAUUCACCUUUUUCAAAUGAUUCUAGUAAAAUCUUUCUCUUAUCUGUUAUUUAUCAAUUUUUCCCAGUAUUUUUAUAUGGAAACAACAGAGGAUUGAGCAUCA	1.96
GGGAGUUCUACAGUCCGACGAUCUCUCUACAGUUUUAAAGACACUCCCUUAUAAGGCACUUUGGCUCUUCAUAUAUUUAACCGUAUUUACAUAUCUAUUUUUUAUAAGUAGCAGUAUAAAUUCAAAGGGGACUCCAACCUUUACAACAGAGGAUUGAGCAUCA	0.393

Other studies, line by line
Starting sequence: PafA, mature enzyme, eGFP fusion (Elizabethkingia meningoseptica, UniProt Q9KJX5); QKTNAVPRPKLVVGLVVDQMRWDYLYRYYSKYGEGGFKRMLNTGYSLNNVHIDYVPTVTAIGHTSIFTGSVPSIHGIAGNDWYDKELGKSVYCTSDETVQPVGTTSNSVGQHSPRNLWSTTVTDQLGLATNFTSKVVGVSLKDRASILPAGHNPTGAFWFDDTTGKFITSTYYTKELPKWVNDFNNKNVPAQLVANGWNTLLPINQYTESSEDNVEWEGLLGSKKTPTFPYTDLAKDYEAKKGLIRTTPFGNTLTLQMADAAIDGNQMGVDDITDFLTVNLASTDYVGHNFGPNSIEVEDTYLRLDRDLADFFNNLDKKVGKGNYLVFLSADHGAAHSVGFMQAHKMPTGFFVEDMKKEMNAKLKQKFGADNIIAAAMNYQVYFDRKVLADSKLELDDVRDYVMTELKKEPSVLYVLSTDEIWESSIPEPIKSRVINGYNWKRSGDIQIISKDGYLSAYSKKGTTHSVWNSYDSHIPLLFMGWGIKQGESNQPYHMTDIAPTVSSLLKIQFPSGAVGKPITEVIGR
Substitution	target	test	test system	setting	how to read	quantity	result
E34V	tungstate, free oxyanion	microfluidic competitive inhibition	in vitro, cell-free expressed	not given, derived from inhibition constants, unchanged parent 2230 nM	lower = stronger binding	oxyanion analog dissociation constant	2110 nM

Repeated from above (other studies, line by line):
Substitution	target	test	test system	setting	how to read	quantity	result
E34V	tungstate, free oxyanion	microfluidic competitive inhibition	in vitro, cell-free expressed	not given, derived from inhibition constants, unchanged parent 2230 nM	lower = stronger binding	oxyanion analog dissociation constant	2110 nM
